Assay results gathered from unrelated publications.
Each line is one published result; not all experiments were run side by side. ± marks the error that the study gave.

C[C@H](CC(=O)C[C@@H](C)[C@H]1C[C@H](O)[C@@]2(C)C3=C(C(=O)C[C@]12C)[C@@]1(C)CCC(=O)C(C)(C)[C@@H]1C[C@@H]3O)C(=O)O
glucose consumption (3T3-L1 adipocytes; 100 µg/mL): 12.4 ± 0.84 mmol/L

COC(=O)N1c2ccc3c(nc(Cc4ccccc4)n3[C@@H]3CCC[C@@H](C(=O)O)C3)c2CC[C@@H]1C
SPDEF and AQP3 mRNA level (MDA-MB-453; qPCR; 0.156, 0.625, 2.5 µM, 24 h, added: R1881 10 nM): decreased

N=C(N/N=C/c1ncc[nH]1)N/N=C/c1ncc[nH]1
additional viability reduction (KP-4; 0.5 × IC50, added: 1 mM 2-deoxyglucose; baseline: compound alone): ~50%

O=C(O)CCC(NP(=O)(O)OCCC[C@@H](NC(=O)CC[C@H](NC(=O)CCCCCNC(=O)c1ccc([18F])cc1)C(=O)O)C(=O)O)C(=O)O (stereo partly shown)
uptake ratio (LNCaP, CWR22Rv1; concentration not given, 1 h; baseline: LNCaP over CWR22Rv1): 9.8 fold

CC1(C)CCN(Cc2ccc(C(=O)NC[C@]3(O)CCCN(c4cc(NCc5ccccc5)ncn4)C3)c(O)c2)CC1
duration of m6A inhibition (U2OS; measured: m6A in mRNA; 40 µM): ≥ 6 days

O=C(N1CCCC1)n1cc(-c2ccc(-c3ccccc3)cc2)nn1
SILAC ratio (mouse T-cells; N-terminal labeled proteins, N-terminal enrichment proteomics, measured: PAIP2B; 1 nM, 6 h; baseline: DMSO): 0.97 ± 0.01

S=C(Nc1ccccc1)c1cccc(C(=S)Nc2ccccc2)n1
inhibition (HFF; cell growth or viability; 12.5 µM, 96 h): < 50%

Cc1ccc(=O)n(-c2ccc(NC(=O)[C@H](C)N(C)C)cc2)c1
relative potency (NIH3T3; cell proliferation, CCK-8; baseline: pirfenidone): 10

COc1cc2c(OC3OCC(OC)C(OC)C3OC(=O)c3ccc(Br)cc3)c3c(c(-c4ccc5c(c4)OCO5)c2cc1OC)C(=O)OC3 (stereo not shown)
mRNA level (FaDu; RT-qPCR, measured: CTSD; concentration not given, 72 h): decreased

CCCC[C@@H]1NC(=O)[C@@H](NC(=O)[C@H](CCC(=O)O)NC(=O)[C@H](CCC(=O)O)NC(C)=O)CCCCNC(=O)[C@@H](NC(=O)CN2CCN(CC(=O)O)CCN(CC(=O)O)CCN(CC(=O)O)CC2)CCCCNC(=O)[C@H](C(C)C)NC(=O)[C@@H]2CCCN2C(=O)[C@H](CCCNC(=N)N)NC(=O)CNC(=O)[C@H](Cc2c[nH]c3ccccc23)NC(=O)[C@H](CCCNC(=N)N)NC(=O)[C@@H](Cc2ccccc2)NC(=O)[C@H](Cc2c[nH]cn2)NC(=O)[C@H](CCC(=O)O)NC1=O [indium-111 labelled]
cellular uptake (B16/F1; 40 min, 25 °C): 72.5 ± 3.1%

C=C(C)[C@@H]1CC[C@]2(C(=O)OCO/N=[N+](\[O-])N3CCCC3)CC[C@]3(C)[C@H](CC[C@@H]4[C@@]5(C)CC[C@H](OC(C)=O)C(C)(C)[C@@H]5CC[C@]43C)[C@@H]12
cells in G1 phase (B16-F10; PI flow cytometry; 0.50 µM): 46.3%

CO[C@H]1N(OC)c2ccccc2[C@@]12CN=C(Nc1cc(C(F)(F)F)cc(C(F)(F)F)c1)S2 (relative stereo)
viable cells (HCT-116; annexin V/PI flow cytometry; 40 µM, 48 h): 37.9 ± 9.12%

COc1ccc2c(c1)/C(=N\Nc1nnc3n1N=C(c1ccccc1)CS3)C(=O)N2
inhibition (SNB-75; cell growth or viability, SRB; 10 µM): 17%

COc1ccc2c(oc3c4ccc(O)cc4oc(=O)c23)c1CC=C(C)C
glucose consumption (3T3-L1 adipocytes; activator; up to 100 µM): inactive

COc1cc(CNC(=O)C[C@H](C)CCC=C(C)C)ccc1OCc1cn(-c2ccccc2[N+](=O)[O-])nn1
growth percent (UACC-62 melanoma cells; SRB; 10 µM, 48 h): 48%

CC(=O)OC[C@H]1O[C@@H](Sc2sc(C(=O)c3ccc(Br)cc3)c(N)c2-c2nc3ccccc3s2)[C@H](OC(C)=O)[C@@H](OC(C)=O)[C@H]1OC(C)=O
growth (MDA-MB-435; SRB; 10 µM, 48 h; baseline: untreated): 91.7%

O=C(c1ccncc1)N1N=C2/C(=C/c3ccc(Br)cc3)CCCC2C1c1ccc(Br)cc1 (stereo not shown)
membrane protection (human erythrocytes; HRBC membrane stabilization; concentration not given): 82.6%

COc1cc(CNC(=O)C[C@H](C)CCC=C(C)C)ccc1OCc1cn(-c2ccc(Cl)cc2Cl)nn1
growth percent (UACC-62 melanoma cells; SRB; 10 µM, 48 h): 65.6%

C=CC(=O)Oc1ccc(Cl)cc1C(=O)Nc1ccc([N+](=O)[O-])cc1Cl
cell growth (CWR22Rv1 cells; total cell number; 0.5 µM, 5 days): decreased

Cc1cc([C@H](C(=O)N2C[C@H](O)C[C@H]2C(=O)N[C@@H](CC(=O)N2CCC(N3CCC(C#Cc4ccc(C(=O)N[C@H]5C(C)(C)[C@H](Oc6ccc(C#N)c(Cl)c6)C5(C)C)cc4)CC3)CC2)c2ccc(-c3scnc3C)cc2)C(C)C)on1
lowest effective concentration (MDA-MB-453, MCF7, MDA-MB-415; colony formation; 240 h, full serum): 100 nM

CCN(CC)C1CCN(Cc2cc(C#CCO)cc(I)c2O)CC1
caspase 3/7 activity (NUGC-4 p53 wild type; 6.25 to 100 µM, 6 h): no effect

CC(C)[C@H](NC(=O)[C@@H]1CCCN1C(=O)[C@H](CCCNC(=N)N)NC(=O)[C@H](CS)NC(=O)[C@H](Cc1c[nH]c2ccccc12)NC(=O)[C@H](CCCNC(=N)N)NC(=O)[C@@H](Cc1ccccc1)NC(=O)[C@H](Cc1c[nH]cn1)NC(=O)[C@H](CCC(=O)O)NC(=O)[C@H](CS)NC(=O)[C@H](CS)NC(=O)[C@H](CCCCN)NC(=O)[C@@H]1CC(=O)N[C@@H](CCCNC(=N)N)C(=O)NCC(=O)N[C@@H](CC(=O)O)C(=O)N[C@H](Cc2ccc(O)cc2)C(=O)N1)C(N)=O
uptake inhibition (B16/F1; competitor; 0.1 µM, 120 min, 25 °C, added: 99mTc-RGD-Lys-(Arg11)CCMSH; baseline: no blocking): 88.1%

CC12CCCC(n3cc(C(=O)N4CCCC(N)C4)nn3)(C1)C1CC(C)(C)C1CC2 (stereo not shown)
apoptotic cells (HT-29; annexin V/PI flow cytometry; 2.5 µM, 48 h): 11.9%

CCCCCCCCCCCCCC[C@@H](O)[C@@H](O)[C@H](CO[C@H]1O[C@H](CO)[C@H](O)[C@H](O)[C@H]1O)NC(=O)CCCCCCCCCCc1ccc(OC)cc1
IFN-γ/IL-4 ratio (human Vα24+ NKT cells; concentration not given, HeLa-CD1d co-culture; baseline: α-GalCer): 2.19 ± 0.12

COc1cc(CNC(=O)C[C@H](C)CCC=C(C)C)ccc1OCc1cn(-c2ccc(Cl)c(Cl)c2)nn1
growth percent (UACC-62 melanoma cells; SRB; 10 µM, 48 h): 69.3%

COc1ccc(C2=Nn3c(NN=C4C(=O)N(Cc5ccccc5)c5ccc(Cl)cc54)nnc3SC2)cc1
inhibition (SF-295; cell growth or viability, SRB; 10 µM): 30%

COc1ccc([C@@H]2CC(=O)c3c(O)cc(O[C@@H]4O[C@H](CO[C@@H]5O[C@@H](C)[C@H](O)[C@@H](O)[C@H]5O)[C@@H](O[C@H]5O[C@H](CO)[C@@H](O)[C@H](O)[C@H]5O)[C@H](O)[C@H]4O)cc3O2)cc1O
cell count (A549; trypan blue exclusion; 50 µg/mL, 48 h): 17100 ± 394

Nc1ccn(C[C@@H](CO)OCP(=O)(O)OCCCS(=O)(=O)CCCCCCCCCCCCC2CCC2)c(=O)n1
intracellular CDV and CDV-PP level (HFF; 30 nM, 72 h, unit not given; baseline: brincidofovir-treated cells): ~3

O=Cc1c(O)ccc2ccccc12
log2 fold change (HUVEC; RNA sequencing, measured: GIMAP7; 75 µM, 24 h; baseline: DMSO): -3.08

COc1cc(CNC(=O)C[C@H](C)CCC=C(C)C)ccc1OCc1cn(-c2ccc(C#N)cc2)nn1
growth percent (K562 leukaemia cells; SRB; 10 µM, 48 h): 47.6%

CC(=O)N[C@H](C(=O)N[C@H](C(=O)N[C@@H](CCCNC(=N)N)C(=O)N1Cc2ccccc2C[C@H]1C(=O)N[C@@H](Cc1ccccc1)C(N)=O)C1CCCCC1)C(C)C
cytokine level (MBP-specific BC-3 T cells; Bio-Plex multiplex, measured: TNF-a; 200 µg/mL, 24 h, added: MBP87-99 antigen): 45.7 ± 34.9 pg/mL

COc1cc(CNC(=O)C[C@H](C)CCC=C(C)C)ccc1OCc1cn(-c2ccc([N+](=O)[O-])cc2)nn1
growth percent (UACC-62 melanoma cells; SRB; 10 µM, 48 h): 53.5%

COc1cc2c(C=C3C(=O)Nc4ccccc43)c[nH]c2cc1C
TGI (renal cancer subpanel of NCI-60; 48 h): 6.92 µM

COc1cc(CNC(=O)C[C@H](C)CCC=C(C)C)ccc1OCc1cn(-c2cccc(Cl)c2)nn1
growth percent (K562 leukaemia cells; SRB; 10 µM, 48 h): 60.8%

COc1c(CC=C(C)C)c(O)cc2c1-c1oc3c(CC=C(C)C)c(O)ccc3c1CO2
glucose consumption (3T3-L1 adipocytes; activator; up to 100 µM): inactive

COc1cc(CNC(=O)C[C@H](C)CCC=C(C)C)ccc1OCc1cn(-c2cccc(C(F)(F)F)c2)nn1
growth percent (NCI-H226; SRB; 10 µM, 48 h): 72.3%

CC(C)[C@H](NC(=O)[C@@H]1CCCN1C(=O)[C@H](CCCNC(=N)N)NC(=O)[C@H](CS)NC(=O)[C@H](Cc1c[nH]c2ccccc12)NC(=O)[C@H](CCCNC(=N)N)NC(=O)[C@@H](Cc1ccccc1)NC(=O)[C@H](Cc1c[nH]cn1)NC(=O)[C@H](CCC(=O)O)NC(=O)[C@H](CS)NC(=O)[C@H](CS)NC(=O)CCCCCNC(=O)[C@@H]1CC(=O)N[C@@H](CCCNC(=N)N)C(=O)NCC(=O)N[C@@H](CC(=O)O)C(=O)N[C@H](Cc2ccc(O)cc2)C(=O)N1)C(N)=O
survival decrease (B16/F1; 0.1 µM, 3 h, 37 °C, read 5 days later; baseline: untreated): 67%

COc1ccc([C@@H]2CC(=O)c3c(O)cc(O[C@@H]4O[C@H](CO[C@@H]5O[C@@H](C)[C@H](O)[C@@H](O)[C@H]5O)[C@@H](O)[C@H](O)[C@H]4O)cc3O2)cc1O
invasion (A549; Matrigel Transwell invasion; 50 µg/mL, 24 h): 52.8 ± 3.49%

COc1cc(CNC(=O)C[C@H](C)CCC=C(C)C)ccc1OCc1cn(-c2cccc([N+](=O)[O-])c2)nn1
growth percent (K562 leukaemia cells; SRB; 10 µM, 48 h): 83.1%

COC(=O)[C@@H]1[C@@H](OC)[C@H](OC(=O)c2cc(OC)c(OC)c(OC)c2)C[C@@H]2CN3CC[C@]4(O[C@@H]3C(=O)[C@@H]21)C(=O)Nc1cc(OC)ccc14
late apoptotic cells (RS4;11; annexin V/PI flow cytometry; 10 µM, 72 h): 82.7 ± 2.81%

NCCCCCO[C@H]1O[C@H](COS(=O)(=O)O)[C@@H](O[C@@H]2O[C@@H](C(=O)O)[C@@H](O[C@H]3O[C@H](COS(=O)(=O)O)[C@@H](O[C@@H]4O[C@@H](C(=O)O)[C@@H](O[C@H]5O[C@H](COS(=O)(=O)O)[C@@H](O[C@@H]6O[C@@H](C(=O)O)[C@@H](O[C@H]7O[C@H](COS(=O)(=O)O)[C@@H](O[C@@H]8O[C@@H](C(=O)O)[C@@H](O)[C@H](O)[C@H]8OS(=O)(=O)O)[C@H](O)[C@H]7NS(=O)(=O)O)[C@H](O)[C@H]6OS(=O)(=O)O)[C@H](O)[C@H]5NS(=O)(=O)O)[C@H](O)[C@H]4OS(=O)(=O)O)[C@H](O)[C@H]3NS(=O)(=O)O)[C@H](O)[C@H]2OS(=O)(=O)O)[C@H](O)[C@H]1NS(=O)(=O)O
cell surface heparan sulfate (human corneal epithelial cells; flow cytometry; concentration not given): no effect

COc1ccc(S(=O)(=O)N(CC(=O)O)c2c(C)c(C)c(N(CC(=O)O)S(=O)(=O)c3cccnc3)c(C)c2C)cc1
IL-1β secretion (H9c2; ELISA; 10 µM, added: LPS 1 µg/mL): decreased

CC/C=C\C/C=C\C/C=C\C/C=C\C/C=C\C/C=C\CCC(=O)Nc1ccn(C2OC(CO)C(O)C2(F)F)c(=O)n1 (stereo not shown)
TGI (MDA-MB-435; NCI60 screen): 18.1 µM

CC(=O)OC[C@H]1O[C@@H](Sc2sc(C(=O)c3ccc(C)cc3)c(N)c2-c2nc3ccccc3s2)[C@H](OC(C)=O)[C@@H](OC(C)=O)[C@@H]1OC(C)=O
growth (SF-295; SRB; 10 µM, 48 h; baseline: untreated): 73.6%

CCC(=C(c1ccc(Cl)cc1)c1ccc(OCCCN(C)C)cc1)c1ccc(OC)cc1
GI50 (MDA-MB-435; cell growth or viability, SRB): 3.28 µM

CCC(=O)N(C)c1ccc(Cl)c(Cl)c1
IL-6 secretion (DBA/1 mouse splenocyte T cells; 50 to 200 µM, added: anti-CD3/CD28): decreased
